Measurements of several laboratories.
Every numbered part comes from another study and shows a few of its results, in no order.
Sequence of UniProt P17948 (whole entry, looked up): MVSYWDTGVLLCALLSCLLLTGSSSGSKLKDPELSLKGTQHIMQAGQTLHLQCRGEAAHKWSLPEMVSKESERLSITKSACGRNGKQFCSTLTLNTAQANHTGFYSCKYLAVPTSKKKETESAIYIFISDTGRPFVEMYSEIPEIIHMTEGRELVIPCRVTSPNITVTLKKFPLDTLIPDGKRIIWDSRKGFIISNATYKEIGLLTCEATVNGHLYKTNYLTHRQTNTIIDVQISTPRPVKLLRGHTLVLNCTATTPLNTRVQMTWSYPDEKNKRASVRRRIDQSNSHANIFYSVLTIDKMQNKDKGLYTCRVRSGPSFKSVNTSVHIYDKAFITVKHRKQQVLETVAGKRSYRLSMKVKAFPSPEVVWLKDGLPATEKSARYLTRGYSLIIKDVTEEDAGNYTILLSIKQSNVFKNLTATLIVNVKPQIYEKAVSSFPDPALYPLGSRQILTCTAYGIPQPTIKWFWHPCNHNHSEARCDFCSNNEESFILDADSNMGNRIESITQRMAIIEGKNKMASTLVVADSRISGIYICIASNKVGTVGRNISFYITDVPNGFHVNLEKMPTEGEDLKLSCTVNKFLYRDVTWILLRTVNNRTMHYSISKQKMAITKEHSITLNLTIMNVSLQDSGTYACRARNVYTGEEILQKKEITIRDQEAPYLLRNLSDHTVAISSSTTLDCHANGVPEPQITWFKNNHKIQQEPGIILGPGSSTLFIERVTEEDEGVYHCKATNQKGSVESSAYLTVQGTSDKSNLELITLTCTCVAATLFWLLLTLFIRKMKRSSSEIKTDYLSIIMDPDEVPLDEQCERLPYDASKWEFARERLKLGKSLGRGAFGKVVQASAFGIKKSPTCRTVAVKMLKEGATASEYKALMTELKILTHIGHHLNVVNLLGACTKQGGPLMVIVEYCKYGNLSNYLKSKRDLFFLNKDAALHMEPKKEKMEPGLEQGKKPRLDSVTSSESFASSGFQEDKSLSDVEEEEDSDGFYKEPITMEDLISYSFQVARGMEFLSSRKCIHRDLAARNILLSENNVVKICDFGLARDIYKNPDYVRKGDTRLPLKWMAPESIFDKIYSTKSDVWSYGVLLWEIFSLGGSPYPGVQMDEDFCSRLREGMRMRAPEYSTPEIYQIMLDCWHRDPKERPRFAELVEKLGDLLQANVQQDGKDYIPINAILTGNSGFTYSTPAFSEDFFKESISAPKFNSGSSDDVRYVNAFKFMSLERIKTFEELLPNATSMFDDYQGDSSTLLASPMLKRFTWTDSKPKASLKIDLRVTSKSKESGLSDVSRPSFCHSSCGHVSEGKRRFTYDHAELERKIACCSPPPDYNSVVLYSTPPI
Sequence of UniProt Q8N5S9 (whole entry, looked up): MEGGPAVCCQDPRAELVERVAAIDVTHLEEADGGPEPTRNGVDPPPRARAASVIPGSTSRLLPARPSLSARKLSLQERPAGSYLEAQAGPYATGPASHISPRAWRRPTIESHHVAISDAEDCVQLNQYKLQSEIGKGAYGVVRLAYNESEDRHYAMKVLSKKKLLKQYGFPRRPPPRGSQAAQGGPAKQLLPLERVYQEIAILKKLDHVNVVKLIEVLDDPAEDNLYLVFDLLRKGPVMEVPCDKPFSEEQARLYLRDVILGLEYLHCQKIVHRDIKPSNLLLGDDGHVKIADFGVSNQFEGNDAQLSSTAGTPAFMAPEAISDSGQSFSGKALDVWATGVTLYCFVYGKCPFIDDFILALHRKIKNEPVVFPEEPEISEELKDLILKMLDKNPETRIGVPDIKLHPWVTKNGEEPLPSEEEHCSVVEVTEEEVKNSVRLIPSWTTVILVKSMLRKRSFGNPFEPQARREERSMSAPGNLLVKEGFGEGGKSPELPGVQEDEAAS
Sequence of UniProt P42685 (whole entry, looked up): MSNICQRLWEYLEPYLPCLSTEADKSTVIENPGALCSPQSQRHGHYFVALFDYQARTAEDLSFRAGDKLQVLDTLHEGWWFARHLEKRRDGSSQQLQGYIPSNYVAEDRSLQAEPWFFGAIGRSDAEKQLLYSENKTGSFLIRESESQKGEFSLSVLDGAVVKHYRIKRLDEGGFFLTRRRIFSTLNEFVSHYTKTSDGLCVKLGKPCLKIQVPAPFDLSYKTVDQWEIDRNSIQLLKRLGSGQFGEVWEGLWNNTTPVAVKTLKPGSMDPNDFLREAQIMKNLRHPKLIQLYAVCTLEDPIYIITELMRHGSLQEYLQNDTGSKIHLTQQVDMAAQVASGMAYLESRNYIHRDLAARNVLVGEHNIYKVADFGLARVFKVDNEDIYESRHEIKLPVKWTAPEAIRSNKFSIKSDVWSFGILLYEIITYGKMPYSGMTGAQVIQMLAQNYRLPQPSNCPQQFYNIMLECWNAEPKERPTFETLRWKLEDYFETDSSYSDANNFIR
Sequence of UniProt P49674 (whole entry, looked up): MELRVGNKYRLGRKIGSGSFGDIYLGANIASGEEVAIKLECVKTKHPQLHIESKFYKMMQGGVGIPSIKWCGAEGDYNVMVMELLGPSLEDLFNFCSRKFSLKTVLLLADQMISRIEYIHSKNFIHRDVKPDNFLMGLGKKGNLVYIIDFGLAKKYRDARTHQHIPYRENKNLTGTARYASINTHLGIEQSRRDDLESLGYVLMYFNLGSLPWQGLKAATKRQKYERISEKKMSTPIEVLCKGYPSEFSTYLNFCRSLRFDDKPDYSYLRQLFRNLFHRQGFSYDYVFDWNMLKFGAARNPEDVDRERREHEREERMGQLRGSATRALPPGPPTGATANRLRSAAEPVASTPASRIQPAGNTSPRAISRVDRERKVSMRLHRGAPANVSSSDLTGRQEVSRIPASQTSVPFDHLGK
Sequence of UniProt Q06418 (whole entry, looked up): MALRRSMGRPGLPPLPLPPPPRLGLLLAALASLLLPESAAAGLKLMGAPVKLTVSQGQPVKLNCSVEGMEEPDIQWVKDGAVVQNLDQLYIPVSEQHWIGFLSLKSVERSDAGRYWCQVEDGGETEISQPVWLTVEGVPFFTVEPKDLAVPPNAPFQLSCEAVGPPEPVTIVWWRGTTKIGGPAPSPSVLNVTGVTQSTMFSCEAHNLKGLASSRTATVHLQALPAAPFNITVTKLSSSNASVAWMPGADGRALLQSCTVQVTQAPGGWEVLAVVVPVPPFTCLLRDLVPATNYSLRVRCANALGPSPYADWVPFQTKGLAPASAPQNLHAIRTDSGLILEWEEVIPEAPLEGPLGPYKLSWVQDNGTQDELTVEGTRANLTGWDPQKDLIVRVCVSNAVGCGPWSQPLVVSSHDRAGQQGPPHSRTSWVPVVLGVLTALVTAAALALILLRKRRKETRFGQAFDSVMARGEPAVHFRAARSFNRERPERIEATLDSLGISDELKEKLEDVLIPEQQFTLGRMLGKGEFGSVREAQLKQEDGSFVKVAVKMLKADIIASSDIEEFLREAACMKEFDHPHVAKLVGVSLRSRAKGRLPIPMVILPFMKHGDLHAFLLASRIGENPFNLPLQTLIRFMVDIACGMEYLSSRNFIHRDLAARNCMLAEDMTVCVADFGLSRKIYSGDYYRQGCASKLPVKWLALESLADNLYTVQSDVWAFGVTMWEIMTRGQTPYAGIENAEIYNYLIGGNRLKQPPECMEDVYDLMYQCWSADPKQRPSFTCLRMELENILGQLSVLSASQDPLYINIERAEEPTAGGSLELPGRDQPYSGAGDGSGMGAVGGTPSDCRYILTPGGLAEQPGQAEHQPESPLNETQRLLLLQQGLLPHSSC
Sequence of UniProt Q8IVW4 (whole entry, looked up): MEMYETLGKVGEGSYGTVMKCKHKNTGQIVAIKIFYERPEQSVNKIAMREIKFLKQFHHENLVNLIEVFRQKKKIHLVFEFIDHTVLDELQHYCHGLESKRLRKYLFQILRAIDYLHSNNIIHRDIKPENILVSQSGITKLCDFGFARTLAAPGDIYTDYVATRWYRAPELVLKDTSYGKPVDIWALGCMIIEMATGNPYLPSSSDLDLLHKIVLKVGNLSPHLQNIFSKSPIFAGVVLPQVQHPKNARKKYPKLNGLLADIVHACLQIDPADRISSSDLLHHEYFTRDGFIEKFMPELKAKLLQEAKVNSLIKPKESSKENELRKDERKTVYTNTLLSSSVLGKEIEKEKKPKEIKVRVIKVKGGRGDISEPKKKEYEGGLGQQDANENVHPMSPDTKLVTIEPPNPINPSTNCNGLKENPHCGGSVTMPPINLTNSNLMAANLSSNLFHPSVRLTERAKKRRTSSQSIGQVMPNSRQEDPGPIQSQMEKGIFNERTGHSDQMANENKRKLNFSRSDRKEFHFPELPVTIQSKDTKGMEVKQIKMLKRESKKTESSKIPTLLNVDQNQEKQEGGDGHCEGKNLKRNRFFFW
Sequence of UniProt Q9NYL2 (whole entry, looked up): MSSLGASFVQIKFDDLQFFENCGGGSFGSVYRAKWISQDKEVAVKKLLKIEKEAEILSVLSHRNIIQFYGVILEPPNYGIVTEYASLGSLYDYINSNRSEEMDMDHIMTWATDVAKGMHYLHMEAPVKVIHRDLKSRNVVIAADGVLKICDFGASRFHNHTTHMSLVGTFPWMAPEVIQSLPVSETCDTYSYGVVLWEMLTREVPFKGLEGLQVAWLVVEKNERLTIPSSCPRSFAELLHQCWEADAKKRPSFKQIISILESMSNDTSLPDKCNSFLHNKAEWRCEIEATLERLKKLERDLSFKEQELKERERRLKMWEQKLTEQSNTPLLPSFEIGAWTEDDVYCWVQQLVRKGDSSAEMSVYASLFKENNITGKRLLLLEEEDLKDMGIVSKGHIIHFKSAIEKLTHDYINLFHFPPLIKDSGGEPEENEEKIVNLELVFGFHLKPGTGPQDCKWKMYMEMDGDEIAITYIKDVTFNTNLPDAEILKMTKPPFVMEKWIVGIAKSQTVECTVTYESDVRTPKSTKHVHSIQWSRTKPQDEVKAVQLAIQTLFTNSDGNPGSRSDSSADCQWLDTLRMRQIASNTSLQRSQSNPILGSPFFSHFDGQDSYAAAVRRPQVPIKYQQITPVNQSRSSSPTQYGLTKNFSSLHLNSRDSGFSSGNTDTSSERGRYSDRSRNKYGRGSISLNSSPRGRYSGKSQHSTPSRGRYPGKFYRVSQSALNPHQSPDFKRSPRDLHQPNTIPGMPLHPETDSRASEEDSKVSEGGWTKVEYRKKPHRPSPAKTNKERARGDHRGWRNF

Study 1
SMILES: CCN(c1nc(N)c(C(=O)N=C(N)N)nc1Cl)C(C)C
Effect on: β-arrestin recruitment
Mode: agonist
Method: PRESTO-Tango
Concentration: 10 µM
Relative to: untreated
| target | fold over basal |
| --- | --- |
| Adhesion G protein-coupled receptor F4 (ADGRF4, Homo sapiens, UniProt Q8IZF3) | 1 |
| MC5R (Homo sapiens, UniProt P33032) | 1.21 |
| CYSLTR1 (Homo sapiens, UniProt Q9Y271) | 1.26 |
| MTNR1A (Homo sapiens, UniProt P48039) | 1.07 |
| G protein-coupled receptor 88 (Homo sapiens, UniProt Q9GZN0) | 1.07 |
| GPR65 (Homo sapiens, UniProt Q8IYL9) | 0.87 |
| CXCR2 (Homo sapiens, UniProt P25025) | 1.1 |

Study 2
SMILES: CCC(=O)N[C@H]1CC[C@@H](C(=O)N(C)c2ccc(-c3nc4ccccc4o3)cc2)C1
Effect on: cell-free assay
Method: competition with immobilised ligand
Concentration: 1 µM
| target | remaining binding [%] |
| --- | --- |
| BMPR1B (Homo sapiens, UniProt O00238) | 91 |
| FRK (Homo sapiens, UniProt P42685) | 100 |
| STK17B (Homo sapiens, UniProt O94768) | 84 |
| EPHA5 (Homo sapiens, UniProt P54756) | 78 |
| CDKL3 (Homo sapiens, UniProt Q8IVW4) | 100 |
| MAPK15 (Homo sapiens, UniProt Q8TD08) | 100 |
| ALK (Homo sapiens, UniProt Q9UM73, C1156Y) | 100 |
| EIF2AK2 (Homo sapiens, UniProt P19525) | 100 |
| COQ8A (Homo sapiens, UniProt Q8NI60) | 100 |
| RET (Homo sapiens, UniProt P07949, M918T) | 100 |

Study 3
SMILES: CC(C)c1nn(-c2c(Cl)cccc2Cl)c2nc(Cc3ccc(OCCO)cc3)[nH]c(=O)c12
Effect on: enzyme activity
Mode: inhibitor
Concentration: 0.5 µM
Relative to: control
| target | remaining activity [%] |
| --- | --- |
| SGK2 (Homo sapiens, UniProt Q9HBY8) | 101 |
| MUSK (Homo sapiens, UniProt O15146) | 96.2 |
| SIK2 (Homo sapiens, UniProt Q9H0K1) | 116 |
| CLK1 (Homo sapiens, UniProt P49759) | 94.7 |
| JAK2 (Homo sapiens, UniProt O60674) | 98.3 |
| EPHB3 (Homo sapiens, UniProt P54753) | 92.6 |
| PRKCQ (Homo sapiens, UniProt Q04759) | 97.3 |
| CSNK1D (Homo sapiens, UniProt P48730) | 97.1 |
| PAK5 (Homo sapiens, UniProt Q9P286) | 76.4 |
| Cyclin-dependent kinase 2, with cyclin E (CDK2, Homo sapiens, UniProt P24941) | 8.6 |
| MELK (Homo sapiens, UniProt Q14680) | 84 |
| CAMKK1 (Homo sapiens, UniProt Q8N5S9) | 100 |
| SRPK1 (Homo sapiens, UniProt Q96SB4) | 97.4 |
| PRKCZ (Homo sapiens, UniProt Q05513) | 96.9 |
| FLT1 (Homo sapiens, UniProt P17948) | 87.2 |
| CSNK1E (Homo sapiens, UniProt P49674) | 83.6 |
| BRSK2 (Homo sapiens, UniProt Q8IWQ3) | 98.3 |
| TYRO3 (Homo sapiens, UniProt Q06418) | 97.8 |
| Cyclin-dependent kinase 5, with p35 (CDK5, Homo sapiens, UniProt Q00535) | 9.64 |
| RPS6KA3 (Homo sapiens, UniProt P51812) | 88.4 |
| MAP3K20 (Homo sapiens, UniProt Q9NYL2) | 94.4 |
| ERBB2 (Homo sapiens, UniProt P04626) | 101 |
| PAK4 (Homo sapiens, UniProt O96013) | 106 |
| IGF1R (Homo sapiens, UniProt P08069) | 24.8 |
| TEC (Homo sapiens, UniProt P42680) | 105 |

Study 4
Cell line: HaCaT
Concentration: 100 µM
Time: 60 h
| Compound | viability [%] |
| --- | --- |
| Cc1ccnc(NS(=O)(=O)c2ccc(N)cc2)n1 | 107 |
| O=C(O)c1cc(-c2ccccc2)nc2ccccc12 | 88.1 |
| COc1c(N2CCNC(C)C2)c(F)cc2c(=O)c(C(=O)O)cn(C3CC3)c12 (centres unmarked) | 157 |
| C[C@H](CCC(=O)O)[C@H]1CC[C@H]2[C@@H]3CC[C@@H]4C[C@H](O)CC[C@]4(C)[C@H]3CC[C@]12C | 144 |
| CCOC(=O)n1ccn(C)c1=S | 113 |
| C[C@]12C=CC(=O)C=C1CC[C@@H]1[C@@H]2[C@@H](O)C[C@@]2(C)[C@H]1CC[C@]2(O)C(=O)COP(=O)(O)O | 144 |
| CC(C)C(=O)Nc1ccc([N+](=O)[O-])c(C(F)(F)F)c1 | 43.5 |
| Nc1nc(=O)n([C@@H]2CS[C@H](CO)O2)cc1F | 130 |

For quick reference, copied from above (study 4):
| Compound | viability [%] |
| --- | --- |
| O=C(O)c1cc(-c2ccccc2)nc2ccccc12 | 88.1 |
| Nc1nc(=O)n([C@@H]2CS[C@H](CO)O2)cc1F | 130 |
| C[C@]12C=CC(=O)C=C1CC[C@@H]1[C@@H]2[C@@H](O)C[C@@]2(C)[C@H]1CC[C@]2(O)C(=O)COP(=O)(O)O | 144 |
| CCOC(=O)n1ccn(C)c1=S | 113 |
| Cc1ccnc(NS(=O)(=O)c2ccc(N)cc2)n1 | 107 |
